Results gathered from unrelated publications.
Compare with care: the assays were run in different laboratories.
FGFR3: Fibroblast growth factor receptor 3 (FGFR3, Homo sapiens, UniProt P22607)
FGFR3 G697C: Fibroblast growth factor receptor 3 (FGFR3, Homo sapiens, UniProt P22607, G697C)

SMILES | target | test | setting | scale | remaining binding
Cc1ccc(-c2c(/C=C(\C#N)C(=O)NC(C)C)n(CCCO)c3ncnc(N)c23)cc1 | FGFR3 | cell-free assay, competition with immobilised ligand | 1 µM |  | 100%
C=CC(=O)N1CCc2ccc(-n3c(=O)ccc4cnc5ccc(-c6cnn(C)c6)cc5c43)cc21 | FGFR3 | KINOMEscan | 1 µM | reference: DMSO control | 95%
Nc1ncc2c(n1)-c1c([nH]c3ccc(C4=CCOCC4)cc13)CCC2 | FGFR3 | binding, competition with immobilised ligand | 1 µM |  | 100%
CNC(=O)C1CCN(c2cc(C)c(F)cc2NC(=O)c2ccc(-c3cc(O)ccc3C)c(C)c2)CC1 | FGFR3 G697C | binding, competition with immobilised ligand | 1 µM |  | 100%
CC(C)=CC1OC(C)(C)C2C=C3C(=O)C(Cl)=CC(O)C3C3C(O)C4OC4C(=O)C132 (stereo not drawn) | FGFR3 | cell-free assay, competition with immobilised ligand | 10 µM |  | 81%
CNC1C[S+]2CC[S+]3CC[S+](C1)[Ru-4]321([N]=C=S)[n]2c3ccc(OC)cc3c3c4c(c5cc(F)c[n+]1c5c32)C(=O)NC4=O (stereo not drawn) | FGFR3 G697C | KinomeScan | 0.1 µM | reference: untreated | 100%
COc1c(Cl)cccc1Nc1c(-c2ccncc2C#C[C@@]2(C)CCCN2C(=O)/C=C/CN(C)C)[nH]c2c1C(=O)NCC2 | FGFR3 | cell-free assay, competition with immobilised ligand | 3 µM |  | 100%
CCN1CCN(Cc2ccc(C(=O)Nc3ccc(C)c(NCc4cnc5[nH]ccc5c4OC)c3)cc2C(F)(F)F)CC1 | FGFR3 | binding, competition with immobilised ligand | 1 µM |  | 32%
Cc1cnc2nc1Nc1cccc(c1)COC/C=C/COCc1cc(ccc1OCCN1CCOCC1)N2 | FGFR3 G697C | binding | 0.1 µM |  | 100%
C=CC(=O)N1CCCC(n2c(=O)c3ncccc3n(Cc3ccc(Oc4ccccc4)cc3)c2=O)C1 (stereo not drawn) | FGFR3 | cell-free assay, competition with immobilised ligand | 1 µM |  | 99%
CN1CCN(Cc2ccc(NC(=O)c3cccc(C#Cc4cnc(N)c5ncccc45)c3)cc2C(F)(F)F)CC1 | FGFR3 | cell-free assay, competition with immobilised ligand | 0.5 µM |  | 1.2%
CNS(=O)(=O)Nc1nccc(Cc2c(C)c3ccc(Oc4ncccc4F)cc3oc2=O)c1F | FGFR3 | cell-free assay, competition with immobilised ligand | 10 µM |  | 97%
